Results pooled from the literature.
Each numbered part is a random draw from the data of one study; scales do not carry over between parts.

Series 1 — technique: RNA Bind-n-Seq; form: RNA; sample: in vitro; tested at: 200 nM; setting: whole 134-nt RNA, ends assumed; added: 150 mM LiCl; relative to: input library; direction: higher = stronger binding; measurement: log2 enrichment; each molecule: 7-deaza-guanosine replaces G
Target: Ras GTPase-activating protein-binding protein 1, full length (G3BP1, Homo sapiens, UniProt Q13283)
Sequence of UniProt Q13283 (whole entry, looked up): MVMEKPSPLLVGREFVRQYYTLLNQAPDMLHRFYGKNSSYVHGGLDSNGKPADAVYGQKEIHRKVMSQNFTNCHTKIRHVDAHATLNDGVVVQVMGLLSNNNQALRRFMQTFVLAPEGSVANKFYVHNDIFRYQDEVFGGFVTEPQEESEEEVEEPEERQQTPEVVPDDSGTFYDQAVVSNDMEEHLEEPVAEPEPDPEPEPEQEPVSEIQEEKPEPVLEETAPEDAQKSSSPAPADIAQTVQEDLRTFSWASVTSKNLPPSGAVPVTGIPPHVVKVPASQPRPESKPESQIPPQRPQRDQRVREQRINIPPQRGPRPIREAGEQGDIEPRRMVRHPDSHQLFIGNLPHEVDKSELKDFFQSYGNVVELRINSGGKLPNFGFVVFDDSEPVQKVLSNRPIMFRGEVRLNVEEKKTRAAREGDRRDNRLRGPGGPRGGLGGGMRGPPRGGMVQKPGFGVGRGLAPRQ
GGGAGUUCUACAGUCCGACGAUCUGGGAGGUGGAUUUUGUUUAUUUUUUUAGCUCAUUUCCAGGGGUGGGAAUUUUUUUUUAAUAUGUGUCAUGAAUCAAGUUGUUUUUGAAAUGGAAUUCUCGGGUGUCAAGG: 0.0556
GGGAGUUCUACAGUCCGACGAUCCCUGUGCUACACAUCGUAUGUACCGAAUCGGGGAAAGGGGUUUUUGGGGUUUUUUUGGGGAAAGUAUUAUGUUACGCCGUUCGGAUCUGCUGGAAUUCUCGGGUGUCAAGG: 0.997
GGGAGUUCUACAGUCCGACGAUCAAGUCCUGUGCUACACAUCGUAUGUACCGAAUCGGGUGGGUUUGGGAAAAAAAGGGAAAGUAUUAUGUUACGCCGUUCGGAUCUGCACUUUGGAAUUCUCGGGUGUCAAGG: -0.468
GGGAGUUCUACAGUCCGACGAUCCUGUGCUACACAUCGUAUGUACCGAAUCGGGGAAAAAAAGGAAAAAAAGGGAAAAAAAGGGGAAAGUAUUAUGUUACGCCGUUCGGAUCUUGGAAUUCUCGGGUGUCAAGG: 0.375
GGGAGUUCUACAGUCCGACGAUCGUCCUGUGCUACACAUCGUAUGUACCGAAUCGGGGAAAAAGGGGAAAAAGGGAAAAAGGAAAGUAUUAUGUUACGCCGUUCGGAUCUGCAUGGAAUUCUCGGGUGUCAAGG: 0.0344
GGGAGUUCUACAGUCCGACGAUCUCCUGUGCUACACAUCGUAUGUACCGAAUCAAAUUUUUUUAAACCCAAACCCCCCCAAAAAAGUAUUAUGUUACGCCGUUCGGAUCUGCAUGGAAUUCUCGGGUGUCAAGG: 1.08
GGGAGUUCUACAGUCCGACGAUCAAGUCCUGUGCUACACAUCGUAUGUACCGAAUCGGCCCCGGGGCCCCGGGCCCCGGAAAGUAUUAUGUUACGCCGUUCGGAUCUGCACUUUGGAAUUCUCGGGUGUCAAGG: -1.05
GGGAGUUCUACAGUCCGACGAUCCCUGUGCUACACAUCGUAUGUACCGAAUCGGUUUUUUGGGUUUUUUGGGGUUUUUUGGGGAAAGUAUUAUGUUACGCCGUUCGGAUCUGCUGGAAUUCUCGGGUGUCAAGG: 0.0901
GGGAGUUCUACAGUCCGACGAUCAAGUCCUGUGCUACACAUCGUAUGUACCGAAUCGGGUUUUGGUUUUGGUUUUGGGGAAAGUAUUAUGUUACGCCGUUCGGAUCUGCACUUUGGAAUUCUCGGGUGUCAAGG: -0.638
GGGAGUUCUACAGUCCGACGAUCAGUCCUGUGCUACACAUCGUAUGUACCGAAUCGGGGAAAAAGGGGAGGGGUUUGGGGAAAGUAUUAUGUUACGCCGUUCGGAUCUGCACUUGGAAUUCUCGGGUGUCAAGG: -0.563
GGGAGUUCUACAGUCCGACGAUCUAACUUUAGAGGAGGAUCUGAUGGAUAUGGCAGUGGACGUGGAUUUGGGGAUGGCUAUAAUGGGUACGGAGGAGGACCUGGAGGUGGCAAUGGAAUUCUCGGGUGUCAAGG: -0.356

Series 2 — technique: RNA Bind-n-Seq; form: RNA; sample: in vitro; tested at: not given; relative to: input RNA pool; direction: higher = stronger binding; measurement: bound/input enrichment
Target: RING finger protein unkempt homolog, zinc fingers 1-6, GST-SBP tag (UNK, Homo sapiens, UniProt Q9C0B0, residues 30-357)
Sequence of UniProt Q9C0B0 (30-357, looked up): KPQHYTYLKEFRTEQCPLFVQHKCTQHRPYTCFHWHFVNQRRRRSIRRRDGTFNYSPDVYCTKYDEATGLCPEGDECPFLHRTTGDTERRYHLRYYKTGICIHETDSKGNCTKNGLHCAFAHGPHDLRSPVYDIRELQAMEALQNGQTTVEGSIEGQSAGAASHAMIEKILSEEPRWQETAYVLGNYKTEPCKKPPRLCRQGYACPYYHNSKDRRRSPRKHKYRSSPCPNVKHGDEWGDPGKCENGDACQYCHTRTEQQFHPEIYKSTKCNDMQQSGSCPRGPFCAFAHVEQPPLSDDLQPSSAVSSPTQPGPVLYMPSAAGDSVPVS
Setting: RNA with constant flanks, human and mouse sites, ends assumed
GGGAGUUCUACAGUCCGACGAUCCGAAACAGCAGCAGGUGACGACGGAGAUGAAGUAUUUGUAGAGGCGGAGUCUGAAGGUAUUAGUUCAGAGGCAGGCCUAGAAAUUGAUAGCCAGCAGGAAGAGGAGCCUGUCCAAGCAUCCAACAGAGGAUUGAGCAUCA: 2.84 ratio
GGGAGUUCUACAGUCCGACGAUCCCUGAGAAUGUCUAUAGCGUUCACUUCGAAAAGGAGCAUAAAGCUGAGAAAGUCCCAGCCGUAGCUAACUACAUUAUGAAAAUACACAAUUUUACUAGCAAAUGCCUCUACUGUAAUCGCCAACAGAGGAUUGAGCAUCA: 22.2 ratio
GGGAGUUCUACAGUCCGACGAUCCAGAAGGAGCACGCAGCUAUCAUUCUUUGGAGCACGGCAUCUUGGAAACAAGUGCAGAGUCUUGCUUUCCACACUCUGACUGUCACACAGAUGACAUUCUCACCUGAUGACAAGUUCUUACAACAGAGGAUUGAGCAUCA: 0.0814 ratio
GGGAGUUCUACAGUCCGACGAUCAGGCAUGAGCUCUUGGCAGGAGUGGGCUCUGAGCAGUUGUUAUAUUCAUUCUUUAUAAACCAUAAAAUAAAUAAUCUCAUCCCCAAACUGUAGUAAUUGUUACAAUUUUCUAUUUAAAAACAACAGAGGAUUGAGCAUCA: 2.82 ratio
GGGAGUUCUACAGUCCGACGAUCCACUCUCACCCUGAAGGAACGGGAGCGGCUGAAGAAAAGGAUUCUGGAUGAAAUUGAAGAACAUAACAUCAAAAUCUAUCACUUACCUGAUGCAGAAUCAGAUGAAGAUGAAGAUUUUAACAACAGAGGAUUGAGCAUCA: 0.138 ratio
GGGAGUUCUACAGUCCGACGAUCGUUGAUGAAAUGAUCAGGGAAGCAGAUAUUGAUGGUGAUGGUCAAGUAAACUAUGAAGAGUUUGUACAAAUGAUGACAGCAAAGUGAAGACCUUGUACAGAAUGUGUUAAAUUUCUUGUACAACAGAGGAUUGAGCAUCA: 0.204 ratio
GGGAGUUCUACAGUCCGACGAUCGGGCACAUCCAGCUGAUGAUCCCUGGAGAGUCGGCUUGCUUCGCGUGUGCGCCACCACUUGUAGUUGCUUCAAAUAUUGAUGAAAAAACCCUGAAACGAGAAGGCGUCUGCGCAGCCAGUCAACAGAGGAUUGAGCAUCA: 0.235 ratio
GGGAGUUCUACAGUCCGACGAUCAAGUUUGAGAAUAUUCAUACUAAUAAUAAACCCGGCUUACUUGGAGAGCCCCCAGCUGUGGUACUUCAGACUGCACUAGGGAUAGGGUCAGUGCUUCCAUUGAAAAAGGAGUUGGGACAUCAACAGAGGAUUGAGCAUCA: 0.559 ratio
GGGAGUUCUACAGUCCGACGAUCGUGGAGAGAGAACUUGUUGAGAAAGAGUUAUUAGAAAAAGUUAAACAUCUUGAGAAUCAAAUAGCCAAAACUCCUGCCUUUGAGUCAGCCAGAGAAGAUUCUUCAAGCUUAGUUGCGGAACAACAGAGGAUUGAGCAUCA: 3.95 ratio
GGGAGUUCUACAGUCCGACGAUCCUAAGUUCUUAACACAUAGUUUUGGACCUCAAAAUAACAUUUUAGAGUUAUUCUAGGCUCAAUAGUUUUUGCUUUAGAUAAUUAUUACAUUUUCCUAAAUUUGUAAUUGCUUUAUUCUGUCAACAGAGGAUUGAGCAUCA: 33.1 ratio
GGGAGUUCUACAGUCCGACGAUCGAAAUUAAAGAGCCUGAAAAUAUUAAUGCAGCUCUUCAAGAAACAGAAGCUCCUUAUAUAUCUAUUGCAUGUGAUUUAAUUAAAGAAACAAAGCUUUCUGCUGAACCAGCUCCGGAUUUCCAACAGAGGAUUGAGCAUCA: 0.467 ratio

Series 3 — technique: protein binding microarray; form: double-stranded DNA, one strand shown; sample: in vitro; tested at: not given; relative to: not given; direction: higher = stronger binding; measurement: E-score
Target: Histone acetyltransferase KAT6A, winged helix 1, GST fusion (KAT6A, Homo sapiens, UniProt Q92794, residues 1-85)
Setting: 8-mer, flanks averaged, mean of 2 arrays, mostly near background
Target sequence (chain): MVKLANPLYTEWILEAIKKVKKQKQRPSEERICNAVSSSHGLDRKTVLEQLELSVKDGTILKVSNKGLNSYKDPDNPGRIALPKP
CGCACCTC: 0.135
CCACGCCC: 0.188
AAAAAGTA: -0.00372
ATTGCCCG: 0.173
CAGATTGC: -0.115
TACATCAA: -0.14
GACTTCGA: -0.12
GGTTAATA: -0.0721
AGCCCGAC: 0.103
GAGGCTCA: -0.00977
CTCTAGTC: -0.133
ATCAGTGC: -0.122
AACTGGGA: -0.21
GCTTCACA: -0.0837
CGTAAGCC: 0.153
ACGAATGG: -0.174
GCCGGCTA: 0.343
GGAATGTA: -0.0673
ACTAAACT: -0.0633
AAACGCTA: -0.00598
GGCTGCAA: 0.0481
CGATCTCA: -0.0233

Series 4 — technique: competition protein-binding microarray; form: double-stranded DNA, one strand shown; sample: in vitro; tested at: 2 µM; added: Pho4 competitor, 0.05 µM; direction: higher = stronger binding; measurement: fluorescence intensity
Target: Centromere-binding protein 1, full length, His-tagged (CBF1, Saccharomyces cerevisiae, UniProt P17106, residues 1-351)
Sequence of UniProt P17106 (whole entry, looked up): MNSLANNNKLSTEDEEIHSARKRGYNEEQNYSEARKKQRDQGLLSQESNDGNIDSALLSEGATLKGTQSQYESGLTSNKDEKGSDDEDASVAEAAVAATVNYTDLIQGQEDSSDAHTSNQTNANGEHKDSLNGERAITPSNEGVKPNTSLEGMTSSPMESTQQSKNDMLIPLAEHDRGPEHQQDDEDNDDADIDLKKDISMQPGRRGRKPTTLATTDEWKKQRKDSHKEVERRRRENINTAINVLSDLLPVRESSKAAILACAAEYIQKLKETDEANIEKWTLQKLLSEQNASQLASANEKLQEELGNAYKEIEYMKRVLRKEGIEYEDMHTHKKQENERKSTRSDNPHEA
Setting: whole 60-bp probe, lowest competitor level
AAAGCGGTAATTTGCGTGGTGGGTGCAGATATCTATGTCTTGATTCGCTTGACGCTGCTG: 80.1 a.u.
TATCCCATCTAATATTCCGTGATGGTTTAATGGTCAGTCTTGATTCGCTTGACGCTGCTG: 87.7 a.u.
AAATTACTAAGTTGTCACATAACTTACCCCGTATGAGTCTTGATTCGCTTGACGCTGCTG: 86.5 a.u.
TATACTAGGTAGTTACACGTGAAATTATTGAATCAAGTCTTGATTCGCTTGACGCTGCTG: 985 a.u.
AATATCCTCAACCTACACGTCTTCACCATCGGTACCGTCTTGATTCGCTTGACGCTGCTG: 55.9 a.u.
TTATCAAGAAACCGTCACAGAAGGAGCTCACTCTGGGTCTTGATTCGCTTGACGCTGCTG: 58.4 a.u.
CATACCCAACCTTGATGTGTGGGTGAAGATATTTGTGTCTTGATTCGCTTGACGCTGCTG: 64.2 a.u.
TTTTTGTAGAATGTACGCGTGATGGCAGTGCCCTGCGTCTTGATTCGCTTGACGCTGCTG: 150 a.u.
CGATTAGCTGAGGATCAGGCGGTACATTGCATACTCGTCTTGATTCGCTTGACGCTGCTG: 68.8 a.u.
CCGGGACATTATAACAACGTGCAAATGGCGATGATTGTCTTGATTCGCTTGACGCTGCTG: 135 a.u.
TGAATTTTCGCGAGTCACGTCGTAACTCATATGCTTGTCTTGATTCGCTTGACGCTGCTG: 165 a.u.
TACTAATAGGCGTCCCACGTTTGAATTTCTTTTTTTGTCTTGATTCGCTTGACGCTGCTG: 68.9 a.u.
ACAATGGATCCAAATCATGTGCCAGGGAGTGAACCCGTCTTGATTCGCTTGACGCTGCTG: 338 a.u.
ACACCATCGCATACCCACGTGGCCGCTTCGTTTGCCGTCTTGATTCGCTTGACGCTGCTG: 659 a.u.
GTCTTGTCTCATTCACACGTGTTTTTCCCCACTTCAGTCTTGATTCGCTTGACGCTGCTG: 731 a.u.
TCCAGTACGGACTGGCACGTGTGTTCCCACCAGGGTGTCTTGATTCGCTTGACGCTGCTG: 905 a.u.
AGGTTAACCTTTAAATATAAATATAGTAATCTTCATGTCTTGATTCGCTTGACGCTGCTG: 87.5 a.u.
ATTATCTAGGTGCTACACGTGTTGGGACAGACTTATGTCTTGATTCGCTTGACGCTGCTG: 942 a.u.
CAGCCTTTAATTTTTCACGTGTGAAATTCGATAATTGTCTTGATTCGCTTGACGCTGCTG: 1180 a.u.

Excerpt of the above (series 4):
TATACTAGGTAGTTACACGTGAAATTATTGAATCAAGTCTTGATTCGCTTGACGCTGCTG: 985 a.u.
AATATCCTCAACCTACACGTCTTCACCATCGGTACCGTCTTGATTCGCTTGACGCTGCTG: 55.9 a.u.
TTATCAAGAAACCGTCACAGAAGGAGCTCACTCTGGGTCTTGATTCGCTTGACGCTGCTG: 58.4 a.u.
CATACCCAACCTTGATGTGTGGGTGAAGATATTTGTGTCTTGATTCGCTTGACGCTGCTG: 64.2 a.u.
TTTTTGTAGAATGTACGCGTGATGGCAGTGCCCTGCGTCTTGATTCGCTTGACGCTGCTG: 150 a.u.
CGATTAGCTGAGGATCAGGCGGTACATTGCATACTCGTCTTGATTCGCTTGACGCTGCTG: 68.8 a.u.
